{"data": "Results pooled from the literature", "note": "Several values in a cell are separate wells, animals, samples, runs or records. Numbers after ± are the reported error."}
{"SMILES": "CC(=O)Oc1ccccc1C(=O)[Se]CC(=O)Nc1cccc(C(F)(F)F)c1", "cell line": "NCI60 breast subpanel", "test": "NCI60 five-dose screen", "measurement": "CC50", "result": "44 µM"}
{"SMILES": "CC(C)C[C@H](NC(=O)[C@H](CCC(=O)O)NC(=O)[C@@H](N)Cc1ccccc1)C(=O)N[C@@H](CCC(=O)O)C(=O)N[C@@H](CCCNC(=N)N)C(=O)N[C@@H](CCCNC(=N)N)C(=O)N[C@@H](Cc1ccccc1)C(=O)N[C@@H](CCCCN)C(=O)N[C@@H](CCC(N)=O)C(=O)N[C@@H](CCC(N)=O)C(=O)O", "cell line": "HCT-116", "test": "CCK-8", "setting": "10 µM", "how to read": "reference: vehicle", "measurement": "viability", "result": "99.1% and 99.9% and 99.4%"}
{"SMILES": "CC(=O)NCSC[C@H](NC(=O)[C@@H]1CCCN1C(=O)[C@H](C)NC(=O)[C@@H](NC(=O)CNC(=O)[C@@H](NC(=O)[C@H](Cc1c[nH]c2ccccc12)NC(=O)[C@H](C)NC(=O)CNC(=O)[C@H](CO)NC(=O)[C@H](C)NC(=O)[C@@H]1CCCN1C(=O)[C@H](Cc1c[nH]c2ccccc12)NC(=O)[C@H](C)NC(=O)[C@H](C)NC(=O)[C@@H](N)Cc1ccc(O)cc1)[C@@H](C)O)[C@@H](C)O)C(=O)N[C@@H](CO)C(=O)N[C@@H](C)C(=O)NCC(=O)N[C@H](C(=O)NCCOCCOCCOCCOCCOCCOCCOCCOCCOCCOCCOCCOCCC(=O)N[C@@H](CS)C(N)=O)[C@@H](C)O", "cell line": "MDA-MB-231 breast cancer", "test": "cell binding, phage binding, refers to: output/input phage", "setting": "10 min, 37 °C", "how to read": "reference: control phage", "measurement": "selectivity ratio", "result": "16 ± 6.1"}
{"SMILES": "CC1CCC2C(C)C(OC(=O)CCC(=O)N3CCC(Nc4ccc(S(=O)(=O)NC(=O)c5ccc(N6CCN(CC7=C(c8ccc(Cl)cc8)CC(C)(C)CC7)CC6)cc5Oc5cnc6[nH]ccc6c5)cc4[N+](=O)[O-])CC3)OC3OC4(C)CCC1C32OO4 (centres unmarked)", "cell line": "THP-1", "test": "annexin V/PI flow cytometry, refers to: annexin V-/PI+", "setting": "0.4 µM, 24 h", "measurement": "necrotic cells", "result": "0.6%"}
{"SMILES": "COc1ccccc1-c1ccncc1C(=O)Nc1nnc(OCc2ccc(Cl)cc2)s1", "cell line": "RPE-1 TP53-/- BRCA1-/-", "setting": "1 µM, average of 2 runs", "how to read": "reference: untreated", "measurement": "colony survival", "result": "50.5%"}
{"SMILES": "Cc1cc(Oc2nc(N3CC[C@@H](c4ccncc4)C3)ncc2F)[nH]n1", "cell line": "UO-31", "test": "cell proliferation", "system": "kidney cancer", "measurement": "IC50", "result": "41.7 µM"}
{"SMILES": "O=C(C[Se]C(=O)c1ccccc1)Nc1cccc(C(F)(F)F)c1", "cell line": "NCI60 breast subpanel", "test": "cell growth", "setting": "10 µM, 48 h, one-dose", "measurement": "mean growth percent", "result": "-56.5%"}
{"SMILES": "CC(C)C[C@H](NC(=O)[C@H](CC(=O)O)NC(=O)CNC(=O)[C@@H](N)CCCNC(=N)N)C(=O)N[C@@H](C)C(=O)N[C@H](C(=O)N[C@@H](CC(C)C)C(=O)N[C@@H](CCCNC(=N)N)C(=O)N[C@@H](CCC(N)=O)C(=O)N[C@@H](CC(C)C)C(=O)N[C@@H](C)C(=O)N[C@@H](CCC(N)=O)C(=O)N[C@@H](CCC(=O)O)C(=O)N[C@@H](CC(=O)O)C(=O)NCC(=O)N[C@H](C(=O)N[C@H](C(=O)NCC(=O)N[C@H](C(=O)N[C@@H](CCCNC(=N)N)C(=O)NCCOCCOCCOCCOCCOCCOCCOCCOCCOCCOCCOCCOCCC(=O)N[C@@H](CS)C(N)=O)C(C)C)C(C)C)C(C)C)[C@@H](C)O", "cell line": "H1355 lung adenocarcinoma", "test": "cell binding, phage binding, refers to: output/input phage", "setting": "10 min, 37 °C", "how to read": "reference: control phage", "measurement": "selectivity ratio", "result": "2.9 ± 0.92"}
{"SMILES": "CC(C)(C)C(=O)OCOP(=O)(OCOC(=O)C(C)(C)C)C1CCCN(O)C1=O (centres unmarked)", "cell line": "M14", "measurement": "log GI50", "result": "-6.16 log M"}
{"SMILES": "O=C(C[Se]C(=O)c1cccs1)Nc1cccc(C(F)(F)F)c1", "cell line": "NCI60 CNS subpanel", "test": "cell growth", "setting": "10 µM, 48 h, one-dose", "measurement": "mean growth percent", "result": "-86.9%"}
{"SMILES": "CSCC[C@H](N)C(=O)N[C@@H](C)C(=O)N[C@@H](Cc1c[nH]c2ccccc12)C(=O)N[C@@H](Cc1c[nH]cn1)C(=O)N[C@@H](CC(=O)O)C(=O)N[C@@H](CC(=O)O)C(=O)N[C@@H](CCC(=O)O)C(=O)N[C@@H](CCC(=O)O)C(=O)N[C@@H](Cc1ccccc1)C(=O)N[C@@H](C)C(=O)N[C@@H](CCCNC(=N)N)C(=O)N[C@@H](CCCNC(=N)N)C(=O)N[C@@H](CCCNC(=N)N)C(=O)N[C@@H](CCCNC(=N)N)C(=O)NCCCCCC(=O)NCCCCC(NC(=O)CCCCCNC(=O)[C@H](CCCNC(=N)N)NC(=O)[C@H](CCCNC(=N)N)NC(=O)[C@H](CCCNC(=N)N)NC(=O)[C@H](CCCNC(=N)N)NC(=O)[C@H](C)NC(=O)[C@H](Cc1ccccc1)NC(=O)[C@H](CCC(=O)O)NC(=O)[C@H](CCC(=O)O)NC(=O)[C@H](CC(=O)O)NC(=O)[C@H](CC(=O)O)NC(=O)[C@H](Cc1c[nH]cn1)NC(=O)[C@H](Cc1c[nH]c2ccccc12)NC(=O)[C@H](C)NC(=O)[C@@H](N)CCSC)C(=O)NCCCCC(NC(=O)C(CCCCNC(=O)CCCCCNC(=O)[C@H](CCCNC(=N)N)NC(=O)[C@H](CCCNC(=N)N)NC(=O)[C@H](CCCNC(=N)N)NC(=O)[C@H](CCCNC(=N)N)NC(=O)[C@H](C)NC(=O)[C@H](Cc1ccccc1)NC(=O)[C@H](CCC(=O)O)NC(=O)[C@H](CCC(=O)O)NC(=O)[C@H](CC(=O)O)NC(=O)[C@H](CC(=O)O)NC(=O)[C@H](Cc1c[nH]cn1)NC(=O)[C@H](Cc1c[nH]c2ccccc12)NC(=O)[C@H](C)NC(=O)[C@@H](N)CCSC)NC(=O)CCCCCNC(=O)[C@H](CCCNC(=N)N)NC(=O)[C@H](CCCNC(=N)N)NC(=O)[C@H](CCCNC(=N)N)NC(=O)[C@H](CCCNC(=N)N)NC(=O)[C@H](C)NC(=O)[C@H](Cc1ccccc1)NC(=O)[C@H](CCC(=O)O)NC(=O)[C@H](CCC(=O)O)NC(=O)[C@H](CC(=O)O)NC(=O)[C@H](CC(=O)O)NC(=O)[C@H](Cc1c[nH]cn1)NC(=O)[C@H](Cc1c[nH]c2ccccc12)NC(=O)[C@H](C)NC(=O)[C@@H](N)CCSC)C(N)=O (some centres unmarked)", "cell line": "mouse C57BL/6 BMMs", "setting": "0.1 µM, 3 days, with: RANKL", "how to read": "reference: untreated control", "measurement": "osteoclast formation", "result": "57%"}
{"SMILES": "CC[C@H](C)[C@H](NC(=O)[C@H](C)NC(=O)CNC(=O)[C@H](Cc1ccccc1)NC(=O)[C@H](CC(N)=O)NC(=O)[C@H](CC(N)=O)NC(=O)[C@H](CO)NC(=O)[C@H](CO)NC(=O)[C@H](Cc1c[nH]cn1)NC(=O)[C@@H](NC(=O)[C@H](CC(C)C)NC(=O)[C@H](Cc1ccccc1)NC(=O)[C@H](CC(N)=O)NC(=O)[C@H](C)NC(=O)[C@H](CC(C)C)NC(=O)[C@H](CCCNC(=N)N)NC(=O)[C@H](CCC(N)=O)NC(=O)[C@@H](NC(=O)[C@H](C)NC(=O)[C@@H]1CSSC[C@H](NC(=O)[C@@H](N)CCCCN)C(=O)N[C@@H](CC(N)=O)C(=O)N[C@@H]([C@@H](C)O)C(=O)N[C@@H](C)C(=O)N[C@@H]([C@@H](C)O)C(=O)N1)[C@@H](C)O)C(C)C)C(=O)N[C@@H](CC(C)C)C(=O)N[C@@H](CO)C(=O)N[C@@H](CO)C(=O)N[C@H](C(=O)N[C@@H](CC(N)=O)C(=O)N[C@H](C(=O)NCC(=O)N[C@@H](CO)C(=O)N[C@@H](CC(N)=O)C(=O)N[C@H](C(=O)N[C@@H](Cc1ccc(O)cc1)C(N)=O)[C@@H](C)O)C(C)C)[C@@H](C)O", "cell line": "RIN-m5F", "test": "refers to: DRAQ5 nuclear marker", "setting": "10 µM, 24 h", "measurement": "Pearson coefficient", "result": "> 0.6"}
{"SMILES": "CC(C)Cc1ccc(C(C)C(=O)[O-])cc1.CC(C)Cc1ccc(C(C)C(=O)[O-])cc1.O.[Cu+2].c1ccncc1.c1ccncc1 (centres unmarked)", "cell line": "MRC-5", "test": "MTT", "setting": "48 h", "measurement": "TGI", "result": "> 100 µM"}
{"SMILES": "O=C(O)c1ccc(-c2nc(-c3ccccc3Cl)c3sccn23)cc1", "cell line": "K562", "test": "flow cytometry", "setting": "concentration not given, 48 h", "measurement": "CD61-positive cells", "result": "> 90%"}
{"SMILES": "CSCC[C@H](NC(=O)[C@@H](NC(=O)[C@H](CCC(N)=O)NC(=O)[C@H](CO)NC(=O)[C@@H](N)C(C)C)[C@@H](C)O)C(=O)N[C@@H](CCCNC(=N)N)C(=O)N[C@@H](CCC(N)=O)C(=O)N[C@H](C(=O)N[C@@H](C)C(=O)N[C@H](C(=O)N1CCC[C@H]1C(=O)N[C@@H](CC(C)C)C(=O)N[C@@H](CC(C)C)C(=O)N[C@@H](Cc1c[nH]c2ccccc12)C(=O)N[C@@H](Cc1ccccc1)C(=O)N[C@@H](Cc1c[nH]c2ccccc12)C(=O)N[C@H](C(=O)NCC(=O)N[C@@H](CO)C(=O)N[C@@H](CC(C)C)C(=O)NCCOCCOCCOCCOCCOCCOCCOCCOCCOCCOCCOCCOCCC(=O)N[C@@H](CS)C(N)=O)[C@@H](C)O)C(C)C)[C@@H](C)O", "cell line": "LNCaP prostate carcinoma", "test": "cell binding, phage binding, refers to: output/input phage", "setting": "10 min, 37 °C", "how to read": "reference: control phage", "measurement": "selectivity ratio", "result": "1.8 ± 1.1"}
{"SMILES": "O=C(C[Se]C(=O)c1ccccc1Nc1cccc(C(F)(F)F)c1)Nc1cccc(C(F)(F)F)c1", "cell line": "NCI60 CNS subpanel", "test": "NCI60 five-dose screen", "measurement": "CC50", "result": "6.41 µM"}
{"SMILES": "NC(=O)N/N=C/c1ccc(OCc2ccccc2)cc1", "cell line": "IMR-32", "test": "refers to: GPX3", "setting": "100 µg/mL, 24 h", "how to read": "higher = more activity", "measurement": "glutathione peroxidase activity (OD450)", "result": "0.11 a.u."}
{"note": "Excerpt of the above:"}
{"SMILES": "CC[C@H](C)[C@H](NC(=O)[C@H](C)NC(=O)CNC(=O)[C@H](Cc1ccccc1)NC(=O)[C@H](CC(N)=O)NC(=O)[C@H](CC(N)=O)NC(=O)[C@H](CO)NC(=O)[C@H](CO)NC(=O)[C@H](Cc1c[nH]cn1)NC(=O)[C@@H](NC(=O)[C@H](CC(C)C)NC(=O)[C@H](Cc1ccccc1)NC(=O)[C@H](CC(N)=O)NC(=O)[C@H](C)NC(=O)[C@H](CC(C)C)NC(=O)[C@H](CCCNC(=N)N)NC(=O)[C@H](CCC(N)=O)NC(=O)[C@@H](NC(=O)[C@H](C)NC(=O)[C@@H]1CSSC[C@H](NC(=O)[C@@H](N)CCCCN)C(=O)N[C@@H](CC(N)=O)C(=O)N[C@@H]([C@@H](C)O)C(=O)N[C@@H](C)C(=O)N[C@@H]([C@@H](C)O)C(=O)N1)[C@@H](C)O)C(C)C)C(=O)N[C@@H](CC(C)C)C(=O)N[C@@H](CO)C(=O)N[C@@H](CO)C(=O)N[C@H](C(=O)N[C@@H](CC(N)=O)C(=O)N[C@H](C(=O)NCC(=O)N[C@@H](CO)C(=O)N[C@@H](CC(N)=O)C(=O)N[C@H](C(=O)N[C@@H](Cc1ccc(O)cc1)C(N)=O)[C@@H](C)O)C(C)C)[C@@H](C)O", "cell line": "RIN-m5F", "test": "refers to: DRAQ5 nuclear marker", "setting": "10 µM, 24 h", "measurement": "Pearson coefficient", "result": "> 0.6"}
{"SMILES": "CC(C)C[C@H](NC(=O)[C@H](CC(=O)O)NC(=O)CNC(=O)[C@@H](N)CCCNC(=N)N)C(=O)N[C@@H](C)C(=O)N[C@H](C(=O)N[C@@H](CC(C)C)C(=O)N[C@@H](CCCNC(=N)N)C(=O)N[C@@H](CCC(N)=O)C(=O)N[C@@H](CC(C)C)C(=O)N[C@@H](C)C(=O)N[C@@H](CCC(N)=O)C(=O)N[C@@H](CCC(=O)O)C(=O)N[C@@H](CC(=O)O)C(=O)NCC(=O)N[C@H](C(=O)N[C@H](C(=O)NCC(=O)N[C@H](C(=O)N[C@@H](CCCNC(=N)N)C(=O)NCCOCCOCCOCCOCCOCCOCCOCCOCCOCCOCCOCCOCCC(=O)N[C@@H](CS)C(N)=O)C(C)C)C(C)C)C(C)C)[C@@H](C)O", "cell line": "H1355 lung adenocarcinoma", "test": "cell binding, phage binding, refers to: output/input phage", "setting": "10 min, 37 °C", "how to read": "reference: control phage", "measurement": "selectivity ratio", "result": "2.9 ± 0.92"}
{"SMILES": "NC(=O)N/N=C/c1ccc(OCc2ccccc2)cc1", "cell line": "IMR-32", "test": "refers to: GPX3", "setting": "100 µg/mL, 24 h", "how to read": "higher = more activity", "measurement": "glutathione peroxidase activity (OD450)", "result": "0.11 a.u."}
